Measured values from different studies.
Protocols differ between the studies behind these lines. Numbers after ± are the reported error.
Sequence of UniProt Q9Y2K6 (whole entry, looked up): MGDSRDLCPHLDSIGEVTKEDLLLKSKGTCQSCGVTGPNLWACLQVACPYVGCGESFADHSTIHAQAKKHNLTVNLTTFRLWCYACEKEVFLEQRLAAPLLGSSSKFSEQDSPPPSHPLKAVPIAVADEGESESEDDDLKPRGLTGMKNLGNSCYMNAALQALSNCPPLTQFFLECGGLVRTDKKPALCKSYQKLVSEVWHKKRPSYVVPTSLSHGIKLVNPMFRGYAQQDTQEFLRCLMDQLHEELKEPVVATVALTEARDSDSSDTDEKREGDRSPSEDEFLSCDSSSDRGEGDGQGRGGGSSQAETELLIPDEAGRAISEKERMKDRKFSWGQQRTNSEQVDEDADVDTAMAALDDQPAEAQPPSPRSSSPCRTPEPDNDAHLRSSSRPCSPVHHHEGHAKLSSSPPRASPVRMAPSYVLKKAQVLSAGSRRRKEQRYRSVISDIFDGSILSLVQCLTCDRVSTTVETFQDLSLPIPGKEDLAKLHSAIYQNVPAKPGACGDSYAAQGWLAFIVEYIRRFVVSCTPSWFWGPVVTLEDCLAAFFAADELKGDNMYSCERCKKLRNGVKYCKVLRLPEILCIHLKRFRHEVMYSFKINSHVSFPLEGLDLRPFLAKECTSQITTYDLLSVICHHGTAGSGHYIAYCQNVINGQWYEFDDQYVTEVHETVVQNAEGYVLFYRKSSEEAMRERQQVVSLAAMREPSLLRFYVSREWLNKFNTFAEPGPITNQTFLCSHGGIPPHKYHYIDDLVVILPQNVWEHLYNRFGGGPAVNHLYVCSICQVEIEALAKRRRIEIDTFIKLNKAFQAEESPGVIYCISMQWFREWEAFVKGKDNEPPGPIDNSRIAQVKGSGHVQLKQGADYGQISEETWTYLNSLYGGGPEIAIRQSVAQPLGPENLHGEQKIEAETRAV
Sequence of UniProt Q53GS9 (whole entry, looked up): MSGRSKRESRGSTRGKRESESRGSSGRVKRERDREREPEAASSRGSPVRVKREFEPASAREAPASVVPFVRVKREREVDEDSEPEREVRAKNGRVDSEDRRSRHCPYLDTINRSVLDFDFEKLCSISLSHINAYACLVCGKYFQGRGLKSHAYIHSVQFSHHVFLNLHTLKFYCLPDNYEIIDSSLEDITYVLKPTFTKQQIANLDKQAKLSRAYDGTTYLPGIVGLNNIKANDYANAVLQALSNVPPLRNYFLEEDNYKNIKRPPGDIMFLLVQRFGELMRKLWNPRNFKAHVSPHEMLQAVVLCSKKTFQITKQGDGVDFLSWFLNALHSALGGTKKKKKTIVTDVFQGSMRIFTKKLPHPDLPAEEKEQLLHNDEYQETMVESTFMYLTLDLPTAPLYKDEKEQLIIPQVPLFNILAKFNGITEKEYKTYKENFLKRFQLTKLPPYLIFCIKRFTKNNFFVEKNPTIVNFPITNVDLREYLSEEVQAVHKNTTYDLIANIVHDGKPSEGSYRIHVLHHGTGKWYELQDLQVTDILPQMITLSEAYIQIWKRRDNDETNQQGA

SMILES	target or system	assay	system	conditions	how to read	measurement	value
CC[C@@H]1C(=O)N(C)c2cnc(Nc3ccc(C(=O)N[C@H]4CC[C@H](N5CCN(CC6CC6)CC5)CC4)cc3OC)nc2N1C(C)C	NLRP3 inflammasome (mouse)	–	mouse BMDM	10 µM	–	inhibition	-87%
Cc1ccc(C(=O)Nc2nnc(S(N)(=O)=O)s2)cc1	Alpha-carbonic anhydrase (Enterococcus faecium, UniProt Q3XYE8)	CO2 hydration, inhibitor, stopped-flow kinetics	–	–	–	Ki	0.0382 µM
N#Cc1ccn2c(-c3ccncc3)c(-c3ccc(F)cc3)nc2c1	–	kinase binding, competitor, MIB/MS competition, item: MCK1	Candida albicans cell lysate	10 µM	baseline: DMSO	log2 fold change	0.392
Cn1cc(-c2ccc(-c3cncc(Cl)c3N3CCC4(CCNC4=O)CC3)cc2)cn1	COLO 205	microarray, item: ADM	–	concentration not given, 2 h	baseline: untreated cells	fold change in expression	2.41
CCC(C)C(O)C(=O)O (stereo not drawn)	–	binding, equilibrium dialysis LC-MS	–	5 µM, thermostabilized A2AR-BRIL construct	baseline: no-protein control, direction not given	z-scored log2 fold change	-0.58
C[C@@H](Oc1cc(-n2cnc3ccc(CN4CCN(C)CC4)cc32)sc1C(N)=O)c1ccccc1C(F)(F)F	iCell Cardiomyocytes (hiPSC-derived)	xCELLigence Cardio impedance	–	concentration not given, 2 h	baseline: control	beat rate	79.4%
O=c1cc(-c2ccc(O)cc2)oc2cc(O)c([C@@H]3O[C@H](CO)[C@@H](O)[C@H](O)[C@H]3O)c(O)c12	NLRP3 inflammasome (mouse)	–	mouse BMDM	10 µM	–	inhibition	9.89%
Nc1nc(CC(=O)O)cs1	Ubiquitin carboxyl-terminal hydrolase 39, ZnF-UBD domain (Homo sapiens, UniProt Q53GS9)	–	–	–	–	Kd	> 1000 µM
CC#CC(=O)N1CC[C@@H](n2c(=O)n(-c3ccc(Oc4ccccc4)cc3)c3c(N)ncnc32)C1	NLRP3 inflammasome (mouse)	–	mouse BMDM	10 µM	–	inhibition	47.3%
C[C@H](Oc1ccc(Br)cc1-c1ccon1)C(=O)O	–	first response peak	human, tibialis anterior muscle	200 mg, 30-15 Hz, SAD	–	difference from placebo	1.98%
Cn1c(Nc2ccc(C(F)(F)F)cc2)nc2cc(Oc3ccnc(-c4ncc(C(F)(F)F)[nH]4)c3)ccc21	iCell Cardiomyocytes (hiPSC-derived)	xCELLigence Cardio impedance	–	concentration not given, 2 h	baseline: control	beat rate	104%
Nc1ncnc2c1ncn2[C@@H]1O[C@H](COP(=O)(O)O)[C@@H](O)[C@H]1O	–	binding, equilibrium dialysis LC-MS	–	5 µM, thermostabilized A2AR-BRIL construct	baseline: no-protein control, direction not given	z-scored log2 fold change	0.215
COCCOCCOCCOc1ccc(C#Cc2cc(CN3CCN(Cc4cc(C#Cc5ccc(OCCOCCOCCOC)cc5)cc(C(=O)O)n4)CCN(Cc4cc(SC[C@H](N)C(=O)NC[C@H]5CC[C@H](C(=O)N[C@@H](Cc6ccc7ccccc7c6)C(=O)NCCCC[C@H](NC(=O)N[C@@H](CCC(=O)O)C(=O)O)C(=O)O)CC5)cc(C(=O)O)n4)CC3)nc(C(=O)O)c2)cc1 [yttrium-86 labelled]	–	–	mouse, liver	intravenous, 6 h	–	tissue uptake	11.7 ± 0.03 %ID/g
OC(CCN1CCCCC1)(c1ccccc1)C1CC2C=CC1C2 (stereo not drawn)	–	resting-state EEG	healthy elderly humans	oral, 4 mg, eyes open, LS mean	–	power, alpha, EEG O1-Pz	7.6 µV²
CCN1CCN(Cc2ccc(Nc3ncc(F)c(-c4cc(F)c5nc(C)n(C(C)C)c5c4)n3)nc2)CC1	NLRP3 inflammasome (mouse)	–	mouse BMDM	10 µM	–	inhibition	65%
C[C@H](CO)C(=O)O	–	binding, equilibrium dialysis LC-MS	–	5 µM, thermostabilized A2AR-BRIL construct	baseline: no-protein control, direction not given	z-scored log2 fold change	-0.0853
c1coc(-c2n[nH]cc2-c2ccnc3ccccc23)c1	NPR1 (Candida albicans)	kinase binding, MIB/MS competition	Candida albicans lysate	1 µM	baseline: DMSO	log2 fold change	-0.18
O=C1CCNC(=O)N1	–	binding, equilibrium dialysis LC-MS	–	5 µM, thermostabilized A2AR-BRIL construct	baseline: no-protein control, direction not given	z-scored log2 fold change	-0.773
CC(C)c1cnn2c(NCc3ccccc3-n3cccn3)nc(OC3CCCNC3)nc12 (stereo not drawn)	human alphaherpesvirus 1	viral replication, GFP live imaging	primary human keratinocytes, K26 GFP-expressing	–	–	IC50	1.56 µM
C/C=C/C(=O)SCCNC(=O)CCNC(=O)[C@H](O)C(C)(C)COP(=O)(O)OP(=O)(O)OC[C@H]1O[C@@H](n2cnc3c(N)ncnc32)[C@H](O)[C@@H]1OP(=O)(O)O	–	binding, equilibrium dialysis LC-MS	–	5 µM, thermostabilized A2AR-BRIL construct	baseline: no-protein control, direction not given	z-scored log2 fold change	-3.73
O=C(O)CSc1nnc(NC(=O)COc2ccccc2)s1	Ubiquitin carboxyl-terminal hydrolase 20, ZnF-UBD domain (USP20, Homo sapiens, UniProt Q9Y2K6)	–	–	–	–	Kd	401 µM
OCCn1cc(-c2ccc3c(c2)CC/C3=N\O)c(-c2ccncc2)n1	iCell Cardiomyocytes (hiPSC-derived)	xCELLigence Cardio impedance	–	concentration not given, 2 h	baseline: control	beat amplitude	106%
COc1cc2nccc(Oc3ccc(NC(=O)C4(C(=O)Nc5ccc(F)cc5)CC4)cc3)c2cc1OC	NLRP3 inflammasome (mouse)	–	mouse BMDM	10 µM	–	inhibition	5.9%
O=C(O)CNC(=O)c1ccco1	–	binding, equilibrium dialysis LC-MS	–	5 µM, thermostabilized A2AR-BRIL construct	baseline: no-protein control, direction not given	z-scored log2 fold change	-0.985
